# Experimental data collected from several papers.
# A part holds a random share of what one study measured. Changes are numbered by the printed parent chain.

# Block 1 — technique: universal PBM; form: double-stranded DNA, one strand shown; medium: in vitro; tested at: 600 nM; direction: higher = stronger binding
# Target: Sal-like protein 4, full length isoform A (SALL4, Homo sapiens, UniProt Q9UJQ4, residues 1-1053)
# Chain of UniProt Q9UJQ4 (whole entry, looked up): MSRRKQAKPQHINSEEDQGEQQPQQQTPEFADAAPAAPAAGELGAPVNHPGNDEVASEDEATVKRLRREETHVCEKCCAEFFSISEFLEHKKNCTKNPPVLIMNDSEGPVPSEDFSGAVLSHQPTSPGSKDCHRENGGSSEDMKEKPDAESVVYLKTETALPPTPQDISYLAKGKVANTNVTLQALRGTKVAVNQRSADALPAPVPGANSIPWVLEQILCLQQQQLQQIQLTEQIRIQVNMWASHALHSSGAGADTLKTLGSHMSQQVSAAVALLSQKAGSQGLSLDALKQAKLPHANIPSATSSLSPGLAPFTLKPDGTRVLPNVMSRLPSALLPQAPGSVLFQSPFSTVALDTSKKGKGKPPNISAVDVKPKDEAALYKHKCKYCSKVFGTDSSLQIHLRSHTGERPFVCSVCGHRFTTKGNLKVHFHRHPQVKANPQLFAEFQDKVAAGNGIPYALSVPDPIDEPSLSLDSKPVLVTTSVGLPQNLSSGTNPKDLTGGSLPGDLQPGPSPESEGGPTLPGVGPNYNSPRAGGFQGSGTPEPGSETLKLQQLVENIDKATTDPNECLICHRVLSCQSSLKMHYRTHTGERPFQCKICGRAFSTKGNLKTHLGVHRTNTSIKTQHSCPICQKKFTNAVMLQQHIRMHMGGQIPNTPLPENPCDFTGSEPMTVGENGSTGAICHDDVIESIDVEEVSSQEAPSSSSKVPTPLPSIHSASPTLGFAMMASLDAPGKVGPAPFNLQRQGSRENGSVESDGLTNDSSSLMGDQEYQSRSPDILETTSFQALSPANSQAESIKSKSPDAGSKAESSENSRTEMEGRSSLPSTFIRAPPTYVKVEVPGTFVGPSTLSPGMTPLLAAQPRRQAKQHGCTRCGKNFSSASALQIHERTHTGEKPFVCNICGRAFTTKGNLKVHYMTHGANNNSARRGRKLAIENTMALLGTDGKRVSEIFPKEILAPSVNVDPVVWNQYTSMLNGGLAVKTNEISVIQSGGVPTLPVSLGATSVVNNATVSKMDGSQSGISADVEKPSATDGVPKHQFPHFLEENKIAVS
# Notes: 8-mer, flanks averaged, mean of replicates
Oligonucleotide,E-score
CGGCTGAC,-0.205
CGCGCCTC,-0.295
AGGATACC,-0.127
TGTTCGAA,0.0277
GCAGAGAC,-0.238
ACGTGTTG,0.134
CTTTAGCA,-0.037
AGCAGCTG,-0.0391
CTCAGATA,0.14

# Block 2 — target: CCNF, cyclin fold, Cln2 fusion (human); technique: yeast growth competition, sequencing; medium: yeast; notes: strong parent motif; baseline: not given; direction: higher = stronger binding
# Parent: CDC6 docking peptide (human); TLKGRRLVFDNQL; partner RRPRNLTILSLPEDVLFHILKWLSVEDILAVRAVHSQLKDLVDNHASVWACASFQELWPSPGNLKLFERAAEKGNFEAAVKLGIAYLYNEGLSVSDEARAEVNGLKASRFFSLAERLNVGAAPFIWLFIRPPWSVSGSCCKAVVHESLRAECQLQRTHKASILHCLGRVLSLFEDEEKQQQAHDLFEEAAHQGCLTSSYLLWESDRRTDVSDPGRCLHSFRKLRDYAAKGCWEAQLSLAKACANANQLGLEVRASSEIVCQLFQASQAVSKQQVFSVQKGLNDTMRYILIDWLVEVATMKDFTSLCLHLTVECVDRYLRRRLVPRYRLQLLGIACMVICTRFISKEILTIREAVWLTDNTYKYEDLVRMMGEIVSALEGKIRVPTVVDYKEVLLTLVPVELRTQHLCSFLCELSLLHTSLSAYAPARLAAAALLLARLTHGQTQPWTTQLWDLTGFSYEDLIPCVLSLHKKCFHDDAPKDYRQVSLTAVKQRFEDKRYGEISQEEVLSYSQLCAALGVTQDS
Substitution,normalised enrichment score
N11S,8.3
D10T,8.66
L7R,1.69
R6N,2.6
L7S,0.394
G4Q,8.24
G4N,5.35
L13V,8.93
G4W,2.27

# Block 3 — target: Sox, HMG box (Pigoraptor chileana); technique: Spec-seq; form: double-stranded DNA, one strand shown; medium: in vitro; tested at: not given; notes: whole probe, mean of replicates; baseline: not given; direction: lower = stronger binding; shared flanks, not repeated: GAGTCGTCTCGTCAGCAC … CCGTAGAGCACTCAGGTC
# Target sequence (chain): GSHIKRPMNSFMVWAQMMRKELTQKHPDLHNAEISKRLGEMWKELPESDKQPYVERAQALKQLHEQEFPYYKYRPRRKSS
Oligonucleotide,relative binding energy [ln ratio]
GGAGGTT,1.59
CTGCGTT,1.07
CATATTG,0.191
CATCTGC,0.788
AACGGTT,-0.956
GGTGGTT,1.12
CATCTAG,0.429

# Other studies, line by line
Molecule,target,assay,system,conditions,how to read,endpoint,value
"PhoQ, residues 284 288 289 292 302 303 SMYGEC","PhoP, residues 12 14 15 18 19 AQCLL (Escherichia coli, UniProt P23836)","Sort-seq, measured: YFP reporter",E. coli,"PhoQ-PhoP variant library, together with: 10 µM Mg2+","baseline: high Mg2+ state, higher = stronger signaling",fold induction,0.82

# A few entries again (block 3):
Oligonucleotide,relative binding energy [ln ratio]
CTGCGTT,1.07
CATCTAG,0.429
GGAGGTT,1.59
CATCTGC,0.788
